Results pooled from the literature.
A part holds a random share of what one study measured.

Block 1
Target: Ras GTPase-activating protein-binding protein 1, full length (G3BP1, Homo sapiens, UniProt Q13283)
Chain of UniProt Q13283 (whole entry, looked up): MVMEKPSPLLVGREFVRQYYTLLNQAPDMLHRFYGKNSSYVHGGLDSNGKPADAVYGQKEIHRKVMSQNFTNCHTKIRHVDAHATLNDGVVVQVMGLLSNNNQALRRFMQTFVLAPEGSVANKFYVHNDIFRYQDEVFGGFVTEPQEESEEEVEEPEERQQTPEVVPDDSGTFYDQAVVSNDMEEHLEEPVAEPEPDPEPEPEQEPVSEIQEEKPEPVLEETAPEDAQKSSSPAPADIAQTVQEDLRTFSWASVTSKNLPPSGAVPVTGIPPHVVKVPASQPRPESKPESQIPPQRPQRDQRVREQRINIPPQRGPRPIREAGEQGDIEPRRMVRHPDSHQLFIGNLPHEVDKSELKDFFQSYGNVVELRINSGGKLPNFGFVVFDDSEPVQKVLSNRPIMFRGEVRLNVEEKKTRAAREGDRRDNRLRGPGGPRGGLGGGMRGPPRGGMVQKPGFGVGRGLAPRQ
Technique: RNA Bind-n-Seq
Form: RNA
Medium: in vitro
Concentration: 200 nM
Notes: whole 134-nt RNA, ends assumed
Added: 150 mM LiCl
Baseline: input library
Direction: higher = stronger binding
Library: 7-deaza-guanosine replaces G
All sequences stand within: GGGAGUUCUACAGUCCGACGAUC … UGGAAUUCUCGGGUGUCAAGG
Strand	log2 enrichment
CACAGACAACACGCACCCACACAGACACAGAGGGAAGGGGUUGGGAUGGGGACAGGGUGCACAGCAGGUCGGGGUAGGACCCCAGCCCCU	-0.735
UCAAGUCCUGUGCUACACAUCGUAUGUACCGAAUCGGGGAAAGGAAAGGAAAGGAAAGUAUUAUGUUACGCCGUUCGGAUCUGCACUUCC	-0.172
UGGCCCUGGUGGCAUGCGGGGAGGAAGAGGUGGCCUCAUGGAUCGUGGUGGUCCCGGUGGAAUGUACAGAGGUGGCCGUGGUGGAGACAG	-0.165
AUUAAGGUCACCGUUGCAGGCCUGGCUGGAAAAGACCCAGUACAGUGUAGCCGUGAUGUGGUCAUUUGUCCUGAUGCCAGCCUUGAAGAU	-1.56
CAAGUCCUGUGCUACACAUCGUAUGUACCGAAUCGGGCCCCGGGCCCCGGCCCCGGAAAGUAUUAUGUUACGCCGUUCGGAUCUGCACUU	-1.37
UCAAGUCCUGUGCUACACAUCGUAUGUACCGAAUCGGUGGAAAAAGGAAAAAGGAAAGUAUUAUGUUACGCCGUUCGGAUCUGCACUUCC	-0.789
UCCUGUGCUACACAUCGUAUGUACCGAAUCGGGGUGGGGAAAAAGGGGUUUUUUUGGGGAAAGUAUUAUGUUACGCCGUUCGGAUCUGCA	0.249
AAGUCCUGUGCUACACAUCGUAUGUACCGAAUCGGGAAAGGGUUUUUGGGAAAGGGAAAGUAUUAUGUUACGCCGUUCGGAUCUGCACUU	-0.617
UACAUUCUUUACCCCUUGUUUUAAUUUGAACCCCACCAUAUGGAUUUUUUUCCUUAAGAAAAUCUCCUUUUAGGAGAUCAUGGUGUCACA	1.58
CCUGUGCUACACAUCGUAUGUACCGAAUCGGGCCCCCCCGGCCCCCCCGGCCCCCCCGGGAAAGUAUUAUGUUACGCCGUUCGGAUCUGC	0.205
UGGCCCUGGUGGCAUGCGGGGAGGAAGAGGUGGCCUCAUGAAUCGUGGUGGUCCCGGUGGAAUGUUCAGAGGUGGCCGUGGUGGAGACAG	0.0307

Block 2
Target: RNA binding protein fox-1 homolog 2, RRM domain, GST-SBP tag (RBFOX2, Homo sapiens, UniProt O43251-10, residues 100-194)
Technique: RNA Bind-n-Seq
Form: RNA
Medium: in vitro
Concentration: 365 nM
Notes: natural RNA segment, single round, ends assumed
Baseline: no-protein control
Direction: higher = stronger binding
All sequences stand within: GGGAGUUCUACAGUCCGACGAUC … UGGAAUUCUCGGGUGCCAA
Strand	RBNS enrichment (R)
CAGCCUGGACAGGGUCUCUGCUGACUGCCAGGGGCGGGGGCUCUGCAUAGCCAGGAUGACGGCUUUCAUGUCCCAGAGACCUGUUGUGCUGUGUAUUUUGAUUUCCUGUG	1.03
UUCCAAUACUCUUUUAAAAAGCGUGUCUGCCCUCUCUUACUUCUAUGUAUUUGUUUAUCGACACACUCACCCUUUCUGAGAUAGCAUUUUGCUCCCUUGAUCCCCCCCUU	0.622
AAAGGAAAAGGAAAGGACUAAGUCAGGAGGCCAGAGAGCCUCCGGCCUCGCCUGGAGCCUGAACGGAGCCCUCCUCUCCCACAGGCCCAAGAUAUAACCCACCAGUGCCU	0.37
CAGGCAUCCUCCAUGUGGACUCACUGUGCUGUUGGGACUGAAACACUAACUUUGUAAAAUGUGUCUGGACCACAAGAGGAUACAGGAGAAGUGCUACCUCUGAUCUAACU	0.427
CAGGCUGGCCACAGGCAGUGGGCAGCUCACUUGCUGCAGUGUCAUAGCAAUAAAAUGUGAUUCUUGGGGUCUGCCCAGAGCUGCCCAUGGCUUUAUUUAUGAGUGUGGCU	0.628
AGGAGUGAUAUUUGUGGAGGAGGAGCUGUACAGUUAUCACUGUGUGUGUUUUGUUAAUACAAGAGGCCGGGUUUGGGGCUUGUGUUUGUCAAUAAACUCUUUGGCGCUGG	0.654
GAUGUAGUAGAACAUGCCCUGCAGGAAGAAAAUGUUUUCUCUCCUGCGUAUGUUAAGAGGAAAUCAGUUUAAAAUGCCUGCUAAUCAAAUGUCGACUCAGCUAACCAUAU	3.01
GUGCUGAGAAAGUAUGCCCCACCUAUCUUUGGUAUAUGAUAGGUUACAUAAAAGGAAGGUAUUGGCUGAACUGAAUAGAGGUCUUGAUCUUUGGAAUGCAUGCCAGUAAU	6.76
CCUUUCUAGUUGCCAUGGAAAAGCUGUUGUUUGAAUACUUGUGUCAGCUAGAGAAAGCACUGCCUCCAGUCAGAGCACAAGAGGUUGUUGAGAAAGAAACACUUUAAGGG	0.558
AGGCCCAUCUCACAAAGACUGGGGAUGUGAACACAUUGGUGUGAGUCAUCAGAAACCCCGUACUCAUGGCCCUGCUCAGGGCUGCUGUUGACUCUGCUUGAGAGGUGGCA	2.03
UAGUAAUGGAUUCAGUACUCCUCAACUCCUAAUGAUUGAGAAGAAGGCAAACGAUAAAGAAAUCCCUCUAUUACACGAAUAAAAUGUUUAAGAAAAGAAAAAAGAAAGGA	0.826
UCCCUGGUAGAUUGCGAACUCAAAGUUUUGUGAUCCCAAAGCCAUUCCACUGCAAAUGCCCAGCAGUGAAGAUGGCCUCAAAUUGGGUUCUUGCCUGCAGUGUGUGUGGC	0.429

Block 3
Target: Interferon regulatory factor 3, full length, phosphomimetic (IRF3, Homo sapiens, UniProt Q14653, residues 1-427, S386D/S396D/S398D/S402D/T404D/S405D)
Technique: protein-binding microarray
Form: double-stranded DNA, one strand shown
Medium: in vitro
Concentration: 2540 nM top
Notes: 60-bp whole probe
Added: salmon DNA 0.4 mg/ml
Baseline: random background probes
Direction: higher = stronger binding
All sequences stand within: GCCTAGCAC … GTCTTGATTCGCTTGACGCTGCTG
Residues (chain): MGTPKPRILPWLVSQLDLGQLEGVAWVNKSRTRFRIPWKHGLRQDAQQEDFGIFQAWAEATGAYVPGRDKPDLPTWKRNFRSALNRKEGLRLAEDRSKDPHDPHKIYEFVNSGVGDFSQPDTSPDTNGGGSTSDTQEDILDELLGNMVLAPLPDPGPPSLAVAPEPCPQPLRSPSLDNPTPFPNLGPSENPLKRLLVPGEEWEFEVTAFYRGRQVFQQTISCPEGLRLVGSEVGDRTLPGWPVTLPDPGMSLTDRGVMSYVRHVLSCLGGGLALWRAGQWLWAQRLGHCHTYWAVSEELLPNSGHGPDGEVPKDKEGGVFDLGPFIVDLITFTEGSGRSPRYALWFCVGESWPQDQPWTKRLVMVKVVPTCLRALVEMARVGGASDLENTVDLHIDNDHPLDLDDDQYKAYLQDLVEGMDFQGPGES
Strand	fitted relative affinity [z-score]
TCAGTTTGCCCTATTTAACTGTGCTAG	1.65
GACGGTTCCGACACTGGGGACGTGCTA	0.787
TTAGGTATCTGGACTGGGTTAGTGCTA	-0.0868
TCAGATATAGGATAACGAACTGTGCTA	0.23
CTAGGTATCCTTATCCTTTAGTGCTAG	4.98
TTAGATATCGGATTTCGATTAGTGCTA	1.9
GACGGTTTCGACATTCGGGACGTGCTA	3.36
GACGGTTTCGGTTCCCGGACGTGCTAG	9.42
TTCTCTCCCATTCTGAATTCGTGCTAG	2.85
TTAGAACTGGGGTTTAGATTAGTGCTA	-0.823
GACGGTTTCCTACTGTTGACGTGCTAG	5.13
TTAGAAATGGGGTATCGATTAGTGCTA	-0.225
GACGAACTGAGTCCCGAGACGTGCTAG	-0.35
ACACTACCTGACTTCAAACTGTGCTAG	0.501
GACTGTATCGACACTGGGGACGTGCTA	0.593
TTAGGTTTCGCCACTGGGTTAGTGCTA	2.08
GTGGGTTTGAGTCTTCTCCTGTGCTAG	-0.933
CACGGTTTCGGTTCCGGGACGTGCTAG	9.76
TCATGTTTTTTTCTATAACTGTGCTAG	0.817
CAGCTTCTAATATTCATTTTGTGCTAG	1
TTAGGTCTCGGTATCGGCTAGTGCTAG	1.02
GTCGGTCTCCTTCTCCTGACGTGCTAG	5.72
TACTTTCTTTTTTTCTTTTAGTGCTAG	5.78
TTAGATTTCAGTTCCGAATAGTGCTAG	3.87
ATGACAATGATGTTTTGAGTTGTGCTA	-0.544

Block 4
Target: Prothrombin, mature alpha-thrombin (F2, Homo sapiens, UniProt P00734)
Technique: aptamer microarray, sandwich
Form: DNA with 2'F-ANA
Medium: in vitro
Concentration: 200 nM
Notes: whole 15-mer aptamer, many near background
Added: Cy3 exosite-II aptamer, 400 nM
Direction: higher = stronger binding
Strand: GGTTGGTGTGGTTGG
Modification	mean fluorescence intensity [a.u.]
2'F-ANA at 4 12 13 14	118
2'F-ANA at 3 4 12 13	829
2'F-ANA at 1 2 7 11 12 13 14	60.1
2'F-ANA at 1 2 10 11 12 13 14	55
2'F-ANA at 3 5 8 10 11 12 13 14	54.7
2'F-ANA at 2 3 8 10 15	375
2'F-ANA at 1 3 4 8 10 11 13 14	51
2'F-ANA at 1 2 4 6 7 8 9 10 12 14	56
2'F-ANA at 3 4 5 7 11 12 15	141
2'F-ANA at 1 6 8 11 12 15	301
2'F-ANA at 1 3 4 8 9 11 12	355
2'F-ANA at 4 7 9 11 12 13 14 15	92.7
2'F-ANA at 4 5 6 9 12	203
2'F-ANA at 1 5 8 10 11 15	48.6
2'F-ANA at 1 2 5 7 8 9 11 12 15	95.2
2'F-ANA at 2 4 5 6 7 8 9 12 13 14	46.9
2'F-ANA at 2 3 4 7 10 14 15	207
2'F-ANA at 1 2 3 5 8 9 12 14	45.2
2'F-ANA at 1 2 4 6 7 8 9 13	80.2
2'F-ANA at 2 10 12	197
2'F-ANA at 1 3 4 5 6 8 9 12 14	50.6
2'F-ANA at 2 6 12 14	172
2'F-ANA at 3 4 6 9 14 15	247
2'F-ANA at 3 5 9 12 13	181
2'F-ANA at 1 2 3 9 11 13 15	174

Block 5
Organism: Saccharomyces cerevisiae
Observed: binding
Technique: yeast competitive growth sequencing
Form: peptide
Strain: cyclin A1-Cln2 strain
Medium: peptide tiling library
Notes: pooled screen
Direction: direction not given
Molecule	enrichment score
PLRKAKRARLCSSSSS	1.6
PFSENVSAVQKLDFSD	1.54
AGSAKRRLFGEDPPKE	1
RVSGLLSWTLSRVLWL	0.0145
TSSAQRRLEIPSGGAD	-0.178
IQKKLRFEDTLEFVGF	-1.05
RSLKLDGLLEEN	-0.997
